Published values pooled from the literature.
Values joined by “and” are separate records of one study, mostly repeats; a detail may differ. ± gives the spread as reported.

| SMILES | cell line | test | setting | scale | measurement | result |
| --- | --- | --- | --- | --- | --- | --- |
| COC1CN([C@H]2CC[C@H]([C@@]3(C)Oc4c(Cl)cc(C(=O)NCc5c(SC)cc(C)[nH]c5=O)c(C)c4O3)CC2)C1 | J82 | cell growth or viability, ATP luminescence | 12 days | – | GI50 | > 10000 nM |
| CC1(C)C[C@@H](Nc2cccc(-c3sc(C(=O)O)c(OCC(=O)O)c3Cl)c2)CCN1S(=O)(=O)Cc1cccc(NC(=O)CN2CCC(c3ccc4c(c3)oc(=O)n4C3CCC(=O)NC3=O)CC2)c1 (stereo partly shown) | B16-F10 | HTRF, measured: phospho-STAT1 Tyr701 | 0.014 µM, together with: IFN-γ | relative to: min-max normalised | pSTAT1 level | 2.87% and 2.77% and 3.16% and 3.82% and 2.69% and 2.96% |
| Cc1nc(=S)[nH]c(C)c1/N=N/c1nnc(S)s1 | Vero | cell viability, MTT | 5.0 µg/mL | – | inhibition | 15.8 ± 0.863% |
| CCOc1cncc(-c2ccc(NC(=O)C3(c4ccnc(NS(=O)(=O)C5CC5)n4)CCOCC3)nc2)n1 | MOLM-6 | cell proliferation, CellTiter-Glo | 72 h, myeloid haematological cancer | – | IC50 | 20 nM |
| CCN(C(=O)c1cc(F)ccc1Oc1nncnc1N1CCC2(C1)CN([C@H](CCCN(C)CCOC)C(C)C)C2)C(C)C | RD-ES | cell growth or viability | 72 h | – | GI50 | > 10000 nM |
| O=CCNCCOn1c(=O)n(OCCNCCO)c(=O)n(OCCNCCOn2c(=O)n(OCCNCCO)c(=O)n(OCCNCCO)c2=O)c1=O | A549 | cell growth or viability, MTT | 12.5 µg/mL, 48 h | – | viability | 46.9% |
| Cc1ncsc1-c1ccc(C(C)NC(=O)C2CC(O)CN2C(=O)C(NC(=O)CCCCCCCCCCN2CCCC(Nc3ncc(Cl)c(Nc4ccccc4S(=O)(=O)C(C)C)n3)C2)C(C)(C)C)cc1 (stereo not shown) | 22Rv1 | RNA-seq, measured: LRIF1 mRNA | concentration not given | relative to: DMSO | log2 fold change | -1.02 |
| CNS(=O)(=O)Nc1nccc(Cc2c(C)c3ccc(Oc4ncccc4F)cc3oc2=O)c1F | IPC-298 | cell viability | 7 days | – | IC50 | 0.503 nM |
| CCCCCCc1cccc(C(O)CC(CO)NC(=O)CCCCCCCCCCNC(C)=O)c1 (stereo not shown) | HeLa | CERT activity, HPLC-MS/MS lipidomics, measured: ceramide 16 | 1 µM, 24 h, not cell-number normalised | – | ceramide level | 22400 pmol/sample and 16100 pmol/sample and 21500 pmol/sample |
| C1=[N+]2CCCC[N+]3=Cc4ccc5[n]4[Au-]23[n]2c1ccc2-c1nc2ccccc2nc1-5.F[P-](F)(F)(F)(F)F | SR | – | NCI60 five-dose screen | – | TGI | 4 -log M |
| COC(=O)c1cc(NC2=NC(=O)C(=Cc3ccc(N(C)C)cc3)S2)ccc1OC(C)=O | MCF7 | GC-MS, measured: Spermidine | 1 µM | relative to: DMSO | metabolite level | 0.13 fold change |
| CN(C)CCN1CCN(c2ccc3nc(-c4ccc5nc(-c6ccc(C(F)(F)F)cc6)[nH]c5c4)[nH]c3c2)CC1 | IGROV-1 | SRB | 10 µM, 48 h | – | growth percent | 78.7% |
| COc1ccc2c(c1)c(CC(=O)[Se]CC(=O)Nc1cccc(C(F)(F)F)c1)c(C)n2C(=O)c1ccc(Cl)cc1 | NCI60 ovarian subpanel | cell growth, inhibitor | five-dose | – | GI50 | 2060 nM |
| CC[C@H](CO)Nc1nc(NCc2ccc(-c3ccccn3)cc2)c2ncn(C(C)C)c2n1 | MOLT-4 | tandem mass tag proteomics, measured: CCNK | 1 µM, 5 h | relative to: DMSO | log2 fold change | -2.43 |
| COc1ccccc1-c1ccncc1C(=O)Nc1nnc(OCc2ccc(Cl)cc2)s1 | MDA-MB-231 (BRCA1 wild-type) | colony formation | 0.375 µM | relative to: untreated control | colony survival | 96% |
| CCCC[N+]1=c2cc3c4cc2[O][Mn-2]1(=[C]=O)(=[C]=O)(=[C]=O)[n+]1ccc(cc1)C(=O)OCCOCCOC(=O)c1cc[n+](cc1)[Mn-2](=[C]=O)(=[C]=O)(=[C]=O)([O]3)[N+]=4CCCC | HEK293 | MTT | 50 µM, 48 h, photolysed compound | – | viability reduction | 48% |
| COC1=C2CC(C)CC(OC)C(O)C(C)C=C(C)C(OC(N)=O)C(OC)C=CC=C(C)C(=O)NC(=CC1=O)C2=O (stereo not shown) | Rh30 | ChIP-seq, measured: H3K36me3 peak | concentration not given, CBX2 TTS chr17:77751200-77761399 | relative to: untreated control | log fold change | -0.544 |

| SMILES | cell line | test | setting | scale | measurement | result |
| --- | --- | --- | --- | --- | --- | --- |
| Cc1ccc([N+](=O)[O-])cc1S(=O)(=O)N(C)/N=C/c1cnc2ccc(Br)cn12 | HuT78 | NFAT immune response pathway, NanoString IPA | 50 nM, 10 h | direction not given | activation z-score | -3.96 |
| O=C(C[Se]C(=O)c1cc2ccccc2o1)Nc1cccc(C(F)(F)F)c1 | NCI60 ovarian subpanel | cell growth | 10 µM, 48 h, one-dose | – | mean growth percent | -79.3% |
| Cc1ccc(-n2cc(CSc3nc4ccccc4n3Cc3cn(-c4ccc(C)cc4)nn3)nn2)cc1 | Caco-2 | MTT | 7.81 ppm | – | cytotoxicity | 38.6% |
| Cn1ncc2cc(-c3cncc(Cl)c3N3CCC4(CCNC4=O)CC3)ccc21 | LS174T | microarray, measured: ADA | concentration not given, 24 h | relative to: untreated cells | fold change in expression | 2.01 |
| O=C(C[Se]C(=O)c1ccccc1Nc1ccccc1)Nc1cccc(C(F)(F)F)c1 | NCI60 ovarian subpanel | cell growth | 10 µM, 48 h, one-dose | – | mean growth percent | -70.7% |
| CCn1nc(Cl)c2c1-c1cnc(N)c(c1)O[C@H](C)c1cc(F)ccc1-c1nn(C)cc1C2 | NB1 (ALK amplification, exon 2-3 deletion) | cell viability | – | – | Emax | 80.5% |
| CCN(CC)CC(=O)Nc1cccc(-n2cc(-c3ccc4ccc(-c5cn(-c6cccc(NC(=O)CN(CC)CC)c6)nn5)cc4c3)nn2)c1 | RCC4 | PCR angiogenesis array, measured: LECT1 | 5 x IC50, 6 h, normoxia | relative to: untreated | fold regulation | 1.08 |
| CN(C)c1ccc(-n2cc(COC(=O)[C@@]3(C)C=C(C(=O)OC(C)(C)C)C(=O)CC3)nn2)cc1 | HeLa | quantitative western blot | concentration not given, 4 (unit not given), together with: EGF | – | pERK/ERK ratio | 0.45 |
| CO[C@@H]1[C@@H](OC(N)=O)[C@@H](O)[C@H](Oc2ccc3c(O)c(NC(=O)c4ccc(O)c(CC=C(C)C)c4)c(=O)oc3c2C)OC1(C)C | DLD-1 BRCA2-/- | – | 300 µM, replicate 1 | – | colony count | 0.1 |
| COC(=O)c1cc(NC2=NC(=O)C(=Cc3ccc(C)cc3)S2)ccc1OC(C)=O | MCF7 | GC-MS, measured: Hydroxylamine | 1 µM | relative to: DMSO | metabolite level | 0.17 fold change |
| O=C(C[Se]C(=O)C12CC3CC(CC(C3)C1)C2)Nc1cccc(C(F)(F)F)c1 | NCI60 ovarian subpanel | cell growth, inhibitor | five-dose | – | GI50 | 4510 nM |
| CN1CCCNC(=O)c2cccc(c2)C(=O)NCCCN(C)CCCNc2cccc3c2C(=O)c2cccc(c2C3=O)NCCC1 | SAS | RNA-Seq, measured: CLASP2 mRNA | 1 µM, 6 h | relative to: untreated cells | log2 fold change | -1.41 |
| Cc1c(Cl)cccc1Nc1ccccc1C(=O)[Se]CC(=O)Nc1cccc(C(F)(F)F)c1 | NCI60 non-small-cell lung subpanel | cell growth | 10 µM, 48 h, one-dose | – | mean growth percent | -86.9% |
| O=C(N1CCCC1)n1cc(-c2ccc(-c3ccccc3)cc2)nn1 | mouse T cells | N-terminal labelling proteomics, measured: NDRG1 N-terminal peptides | 0.001 µM, 6 h | relative to: DMSO | SILAC ratio | 1.24 |
| Cc1cc(Cl)cc(-c2ccnc3cc(CN4C(=O)C5C(C4=O)C5(C)C)sc23)c1C[C@@H]1CNCCO1 (stereo partly shown) | CHP-212 | SRB | 2.5 µM | – | viability | 16.3% |
| CC(C)c1ccc(N(C)c2ccc3c(c2)OCC[C@H]3CNc2cnccc2C(=O)O)cc1 | Lu-99 | cell viability, CellTiter-Glo | 7 days | – | IC50 | ≥ 10000 nM |
| COc1cc([C@@H]2O[C@@H](c3cc(OC)c(O[C@@H]4O[C@H](CO)[C@@H](O)[C@H](O)[C@H]4O)c(OC)c3)[C@H](CO)[C@H]2CO)cc(OC)c1O | PCS-210-010 human pre-adipocytes | lipid accumulation, inhibitor, Oil Red O staining | maturation stage | – | lowest effective concentration | 20 µM |

For quick reference, copied from above:
| SMILES | cell line | test | setting | scale | measurement | result |
| --- | --- | --- | --- | --- | --- | --- |
| CCN(CC)CC(=O)Nc1cccc(-n2cc(-c3ccc4ccc(-c5cn(-c6cccc(NC(=O)CN(CC)CC)c6)nn5)cc4c3)nn2)c1 | RCC4 | PCR angiogenesis array, measured: LECT1 | 5 x IC50, 6 h, normoxia | relative to: untreated | fold regulation | 1.08 |
| CCn1nc(Cl)c2c1-c1cnc(N)c(c1)O[C@H](C)c1cc(F)ccc1-c1nn(C)cc1C2 | NB1 (ALK amplification, exon 2-3 deletion) | cell viability | – | – | Emax | 80.5% |
| CN(C)CCN1CCN(c2ccc3nc(-c4ccc5nc(-c6ccc(C(F)(F)F)cc6)[nH]c5c4)[nH]c3c2)CC1 | IGROV-1 | SRB | 10 µM, 48 h | – | growth percent | 78.7% |
